Published values collected from several papers.
± marks the error that the study gave.
CYP2D6: Cytochrome P450 2D6 (CYP2D6, Homo sapiens, UniProt P10635)
UniProt P10635, sequence (whole entry, looked up): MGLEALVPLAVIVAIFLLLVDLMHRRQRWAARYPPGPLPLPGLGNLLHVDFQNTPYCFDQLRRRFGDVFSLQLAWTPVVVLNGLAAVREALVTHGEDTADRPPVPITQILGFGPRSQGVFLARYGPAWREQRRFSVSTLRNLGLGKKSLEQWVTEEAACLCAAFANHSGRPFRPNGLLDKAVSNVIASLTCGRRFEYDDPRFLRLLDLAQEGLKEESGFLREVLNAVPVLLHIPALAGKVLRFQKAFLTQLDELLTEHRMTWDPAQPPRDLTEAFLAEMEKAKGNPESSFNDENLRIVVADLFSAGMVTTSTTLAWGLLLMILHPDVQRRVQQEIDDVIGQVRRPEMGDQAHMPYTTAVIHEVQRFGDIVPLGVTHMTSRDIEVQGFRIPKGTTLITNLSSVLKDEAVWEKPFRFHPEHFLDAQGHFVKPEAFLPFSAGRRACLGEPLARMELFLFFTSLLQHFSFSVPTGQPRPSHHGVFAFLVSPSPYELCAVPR
KCNH2: Voltage-gated inwardly rectifying potassium channel KCNH2 (KCNH2, Homo sapiens, UniProt Q12809)
UniProt Q12809, sequence (whole entry, looked up): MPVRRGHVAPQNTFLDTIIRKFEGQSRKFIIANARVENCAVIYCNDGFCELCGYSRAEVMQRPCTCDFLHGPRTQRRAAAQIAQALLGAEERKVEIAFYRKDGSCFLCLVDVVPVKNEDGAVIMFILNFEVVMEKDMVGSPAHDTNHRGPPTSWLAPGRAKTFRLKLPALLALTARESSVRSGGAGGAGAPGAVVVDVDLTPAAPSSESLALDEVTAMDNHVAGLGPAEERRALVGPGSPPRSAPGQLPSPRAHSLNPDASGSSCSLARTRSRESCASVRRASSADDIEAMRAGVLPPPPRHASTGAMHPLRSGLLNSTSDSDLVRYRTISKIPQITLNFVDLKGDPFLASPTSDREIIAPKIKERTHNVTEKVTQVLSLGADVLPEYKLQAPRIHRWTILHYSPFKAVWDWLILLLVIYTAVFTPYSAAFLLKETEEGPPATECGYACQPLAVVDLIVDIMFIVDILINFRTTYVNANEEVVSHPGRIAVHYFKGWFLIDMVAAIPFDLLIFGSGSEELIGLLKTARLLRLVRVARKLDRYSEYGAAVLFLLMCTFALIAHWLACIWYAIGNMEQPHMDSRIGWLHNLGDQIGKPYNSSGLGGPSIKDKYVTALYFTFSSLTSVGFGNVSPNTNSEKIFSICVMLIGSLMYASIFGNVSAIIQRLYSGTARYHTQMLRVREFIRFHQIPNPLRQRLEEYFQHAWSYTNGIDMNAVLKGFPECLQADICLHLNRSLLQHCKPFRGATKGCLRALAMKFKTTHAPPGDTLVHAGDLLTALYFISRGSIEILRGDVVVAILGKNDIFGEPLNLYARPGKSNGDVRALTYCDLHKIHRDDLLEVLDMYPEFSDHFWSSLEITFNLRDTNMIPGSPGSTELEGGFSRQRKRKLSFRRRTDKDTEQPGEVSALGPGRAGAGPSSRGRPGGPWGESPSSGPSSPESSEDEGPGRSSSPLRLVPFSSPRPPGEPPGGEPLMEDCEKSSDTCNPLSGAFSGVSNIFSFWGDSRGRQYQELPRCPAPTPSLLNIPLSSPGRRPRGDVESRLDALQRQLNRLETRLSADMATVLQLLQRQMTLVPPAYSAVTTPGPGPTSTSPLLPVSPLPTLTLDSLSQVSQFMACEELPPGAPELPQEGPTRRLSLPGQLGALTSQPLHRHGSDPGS
CYP2B6: Cytochrome P450 2B6 (CYP2B6, Homo sapiens, UniProt P20813)
UniProt Q9Y6L6, sequence (whole entry, looked up): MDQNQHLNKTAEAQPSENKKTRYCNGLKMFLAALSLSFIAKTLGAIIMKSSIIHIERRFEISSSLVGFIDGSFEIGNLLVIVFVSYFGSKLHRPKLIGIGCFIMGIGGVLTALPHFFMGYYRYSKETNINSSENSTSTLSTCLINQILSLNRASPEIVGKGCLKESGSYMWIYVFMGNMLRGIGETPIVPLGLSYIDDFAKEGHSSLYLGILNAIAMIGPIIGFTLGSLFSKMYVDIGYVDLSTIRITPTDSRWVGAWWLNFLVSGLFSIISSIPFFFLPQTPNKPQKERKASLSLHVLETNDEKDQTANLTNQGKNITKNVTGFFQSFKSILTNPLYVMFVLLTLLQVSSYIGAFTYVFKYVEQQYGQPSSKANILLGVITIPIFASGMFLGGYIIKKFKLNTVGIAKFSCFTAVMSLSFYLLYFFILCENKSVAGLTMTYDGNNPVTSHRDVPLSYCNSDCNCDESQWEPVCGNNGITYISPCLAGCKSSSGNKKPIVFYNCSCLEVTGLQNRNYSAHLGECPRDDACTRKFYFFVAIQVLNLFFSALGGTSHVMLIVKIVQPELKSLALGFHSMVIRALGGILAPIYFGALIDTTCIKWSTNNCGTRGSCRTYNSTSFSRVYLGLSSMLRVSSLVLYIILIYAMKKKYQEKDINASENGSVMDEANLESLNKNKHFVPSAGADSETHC
UniProt P15145, sequence (whole entry, looked up): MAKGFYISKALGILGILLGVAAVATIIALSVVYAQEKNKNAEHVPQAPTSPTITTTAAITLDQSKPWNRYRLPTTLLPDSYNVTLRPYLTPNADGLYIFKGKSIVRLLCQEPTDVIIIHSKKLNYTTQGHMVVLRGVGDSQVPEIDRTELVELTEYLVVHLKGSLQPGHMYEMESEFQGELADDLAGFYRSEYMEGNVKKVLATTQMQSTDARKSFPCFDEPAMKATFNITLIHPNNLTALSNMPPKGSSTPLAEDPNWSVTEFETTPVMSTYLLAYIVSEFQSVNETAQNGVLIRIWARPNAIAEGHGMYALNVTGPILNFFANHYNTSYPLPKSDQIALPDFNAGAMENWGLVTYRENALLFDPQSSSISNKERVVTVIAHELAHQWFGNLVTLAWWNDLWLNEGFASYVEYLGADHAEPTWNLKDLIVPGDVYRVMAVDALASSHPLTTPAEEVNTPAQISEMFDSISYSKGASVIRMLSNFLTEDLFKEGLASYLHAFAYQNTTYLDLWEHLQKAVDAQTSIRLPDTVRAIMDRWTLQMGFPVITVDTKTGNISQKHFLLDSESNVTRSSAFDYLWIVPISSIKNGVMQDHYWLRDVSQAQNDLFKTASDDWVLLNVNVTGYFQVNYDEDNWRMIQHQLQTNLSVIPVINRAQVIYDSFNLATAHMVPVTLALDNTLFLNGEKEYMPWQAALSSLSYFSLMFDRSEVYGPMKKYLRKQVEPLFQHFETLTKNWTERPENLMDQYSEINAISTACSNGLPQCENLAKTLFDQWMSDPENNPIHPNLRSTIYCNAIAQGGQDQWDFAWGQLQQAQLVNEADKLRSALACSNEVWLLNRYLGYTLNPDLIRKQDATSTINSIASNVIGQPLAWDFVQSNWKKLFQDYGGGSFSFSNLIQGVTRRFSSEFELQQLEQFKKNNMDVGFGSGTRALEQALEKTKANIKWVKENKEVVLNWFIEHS
UniProt O95342, sequence (whole entry, looked up): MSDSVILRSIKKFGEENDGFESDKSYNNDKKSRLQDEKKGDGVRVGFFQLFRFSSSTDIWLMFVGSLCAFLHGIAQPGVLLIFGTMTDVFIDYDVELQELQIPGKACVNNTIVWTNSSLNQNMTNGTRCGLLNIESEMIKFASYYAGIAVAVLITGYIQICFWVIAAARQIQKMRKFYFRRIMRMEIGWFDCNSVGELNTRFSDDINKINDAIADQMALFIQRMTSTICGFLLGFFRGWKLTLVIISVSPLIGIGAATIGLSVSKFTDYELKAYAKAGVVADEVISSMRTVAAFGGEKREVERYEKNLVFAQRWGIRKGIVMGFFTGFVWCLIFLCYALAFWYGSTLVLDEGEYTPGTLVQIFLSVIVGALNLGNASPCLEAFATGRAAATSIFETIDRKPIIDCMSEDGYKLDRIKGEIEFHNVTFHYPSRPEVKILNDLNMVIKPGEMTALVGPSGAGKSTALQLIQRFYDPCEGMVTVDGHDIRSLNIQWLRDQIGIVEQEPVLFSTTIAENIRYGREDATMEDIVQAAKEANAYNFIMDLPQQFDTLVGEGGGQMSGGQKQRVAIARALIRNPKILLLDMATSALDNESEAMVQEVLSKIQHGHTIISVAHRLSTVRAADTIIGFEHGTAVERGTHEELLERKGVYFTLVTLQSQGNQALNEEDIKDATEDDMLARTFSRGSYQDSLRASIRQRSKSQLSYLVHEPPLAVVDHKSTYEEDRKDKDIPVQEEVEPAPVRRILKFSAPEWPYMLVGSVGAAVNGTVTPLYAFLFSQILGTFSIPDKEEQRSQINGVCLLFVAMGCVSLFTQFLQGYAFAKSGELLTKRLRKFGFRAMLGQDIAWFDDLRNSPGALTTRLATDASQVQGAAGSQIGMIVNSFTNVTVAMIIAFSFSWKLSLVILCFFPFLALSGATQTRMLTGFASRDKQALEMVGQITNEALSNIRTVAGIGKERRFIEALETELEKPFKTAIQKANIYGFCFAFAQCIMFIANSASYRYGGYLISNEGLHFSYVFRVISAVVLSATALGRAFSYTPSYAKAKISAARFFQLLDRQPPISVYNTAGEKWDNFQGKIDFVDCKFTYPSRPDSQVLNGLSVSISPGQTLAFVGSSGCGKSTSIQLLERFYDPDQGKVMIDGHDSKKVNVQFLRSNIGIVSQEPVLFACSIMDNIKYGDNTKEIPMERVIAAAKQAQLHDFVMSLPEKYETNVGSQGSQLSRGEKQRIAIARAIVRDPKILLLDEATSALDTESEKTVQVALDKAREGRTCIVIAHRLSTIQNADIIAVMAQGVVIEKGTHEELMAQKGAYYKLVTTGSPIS
UniProt P00760, sequence (whole entry, looked up): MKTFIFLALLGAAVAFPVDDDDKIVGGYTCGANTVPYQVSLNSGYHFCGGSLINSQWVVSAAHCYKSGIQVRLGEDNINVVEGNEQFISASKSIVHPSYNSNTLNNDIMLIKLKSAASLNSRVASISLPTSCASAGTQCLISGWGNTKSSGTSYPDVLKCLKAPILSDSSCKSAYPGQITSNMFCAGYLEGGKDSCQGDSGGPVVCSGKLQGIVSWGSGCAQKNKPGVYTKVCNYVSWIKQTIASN

Structure (SMILES)	target	test	test system	conditions	scale	quantity	result
CC(C)(O)c1ccccc1CC[C@H](c1cccc(/C=C/c2ccc3ccc(Cl)cc3n2)c1)S(=O)(=O)CC1(CC(=O)O)CC1	CYP2D6	inhibitor	human liver microsomes	2 µM, pH 7.4, together with: dextromethorphan		inhibition	< 0%
CC(CCC(=O)NCC(=O)O)C1CCC2C3C(O)CC4CC(OC5OC(C(=O)O)C(O)C(O)C5O)CCC4(C)C3CCC12C (stereo not drawn)	Solute carrier organic anion transporter family member 1B1 (SLCO1B1, Homo sapiens, UniProt Q9Y6L6)	substrate	transfected HEK293 cells	1 µM, 2 min	baseline: wild-type HEK293 cells	uptake ratio	86
NCCCC[C@@H]1NC(=O)[C@@H](N)Cc2cccc(c2)C[C@@H](C(=O)O)NC(=O)CNC1=O	Serine protease 1 (PRSS1, Bos taurus, UniProt P00760)	proteolytic degradation		50 µM, 5 h, pH 7.4, 25 °C, together with: 0.1 mg/mL PRSS1		remaining intact peptide	≤ 95%
CC(CCC(=O)NCC(=O)O)C1CCC2C3CCC4CC(OC5OC(C(=O)O)C(O)C(O)C5O)CCC4(C)C3CC(O)C12C (stereo not drawn)	Solute carrier organic anion transporter family member 2B1 (SLCO2B1, Homo sapiens, UniProt O94956)	substrate	transfected HEK293 cells	1 µM, 2 min	baseline: wild-type HEK293 cells	uptake ratio	2 ± 0.5
CCCCCC1=C(NCC)C(=O)C(C/C=C(\C)CCC=C(C)C)=C(O)C1=O	Bile salt export pump (ABCB11, Homo sapiens, UniProt O95342)	transport, inhibitor		up to 22.5 µM		inhibition	< 50%
CC(C)(O)c1ccccc1CC[C@H](c1cccc(/C=C/c2ccc3ccc(Cl)cc3n2)c1)[S+]([O-])CC1(CC(=O)O)CC1 (stereo partly drawn)	CYP2D6	inhibitor	human liver microsomes	10 µM, pH 7.4, together with: dextromethorphan		inhibition	< 0%
[64Cu+2].c1ccc(CNCc2ccc(CN3CCCNCCNCCCNCC3)cc2)nc1	CXCR4		NOD/SCID mouse, U87 and U87-stb-CXCR4 xenografts, bladder	iv, 90 min, no blocking dose, ex vivo		tissue uptake	4.36 ± 0.72 %ID/g
CC[C@@H]1CN2CCc3c([nH]c4cccc(OC)c34)[C@@H]2C[C@@H]1/C(=C\OC)C(=O)OC	UDP-glucuronosyltransferase, rat	4-MU glucuronidation, inhibitor	rat liver microsomes	30 min, pH 7.4, together with: 4-methylumbelliferone 100 µM		IC50	> 100000 nM
O=C(O)CC[C@H](NC(=O)CNC(=O)[C@@H](Cc1ccccc1)NC(=O)[C@@H](Cc1ccccc1)NC(=O)Cc1ccc2ccccc2c1)C(=O)N[C@@H](Cc1ccc(OP(=O)(O)O)cc1)C(=O)O	proteinase K	proteolytic stability		200 µM, 32 h, together with: proteinase K 3 U/mL		remaining compound	~70%
C=CC1CN2CCC1CC2C(O)c1c(-c2ccc(N=Nc3ccccc3)cc2)cnc2ccc(OC)cc12 (stereo not drawn)	KCNH2	potassium current, whole-cell patch clamp		10 µM, pH 7.3, together with: light 365 versus 480 nm		photoswitching efficacy	7.9 ± 4.5%
CCN(CC)CCOc1ccc(-c2nnn(Cc3ccc(OC)cc3)c2N)cc1	CYP2B6	enzyme activity, inhibitor		concentration not given		inhibition	no inhibition
CCCCCc1cc(O)c2c(c1)OC(C)(C)C1CCC(C(=O)OC3OC(C(=O)O)C(O)C(O)C3O)=CC21 (stereo not drawn)	CYP2B6	inhibitor	HEK293 overexpressing CYP2B6, recombinant microsomes	concentration not given, together with: efavirenz		inhibition	inhibited
C/C=C/C[C@@H](C)[C@@H](O)[C@H]1C(=O)N[C@@H](CC)C(=O)N(C)C(Cc2ccc(C(=O)O)cc2)C(=O)N(C)[C@@H](CC(C)C)C(=O)N[C@@H](C(C)C)C(=O)N(C)[C@@H](CC(C)C)C(=O)N[C@@H](C)C(=O)N[C@H](C)C(=O)N(C)[C@@H](CC(C)C)C(=O)N(C)[C@@H](CC(C)C)C(=O)N(C)[C@@H](C(C)C)C(=O)N1C (stereo partly drawn)	calcineurin	phosphatase activity, inhibitor, item: phosphate release from RII phosphopeptide		720 nM, together with: rat cyclophilin A complex		inhibition	-3%
C=C(C)[C@@H]1CCC(C(=O)O)=C[C@H]1c1c(O)cc(CCCCC)cc1O	CYP3A4/CYP2C19		human	750 mg single dose, alone		half-life	26.8 h
NCC(=O)N[C@@H](Cc1ccccc1)C(=O)N[C@@H](Cc1ccccc1)C(=O)N[C@@H](CC(=O)O)C(=O)O	Aminopeptidase N (ANPEP, Sus scrofa, UniProt P15145)	peptide degradation, substrate, MS		pH 7.5, 37 °C		degradation time	≤ 5 h
C=C(C)[C@@H]1CCC(CO)=C[C@H]1c1c(O)cc(CCCCC)cc1O	CYP3A4/CYP2C19		human	dose not given, single dose, together with: rifampicin 600 mg once daily		half-life	11.7 h
O=C1Cc2cc(CCN3CCN(C4=NS(=O)(=O)c5ccccc54)CC3)c(Cl)cc2N1	CYP2D6	inhibitor	human liver microsomes	2 µM, pH 7.4, together with: dextromethorphan		inhibition	< 0%
CN1C(=O)[C@@H](Cc2ccc(O)cc2)NC(=O)CNC(=O)[C@H](Cc2ccc3ccccc3c2)NC(=O)[C@H](CCCNC(=N)N)NC(=O)[C@H]1CCCNC(=O)c1ccc(CNC(=O)CN2CCN(CC(=O)O)CCN(CC(=O)O)CCN(CC(=O)O)CC2)cc1 [gallium-68 labelled]	C-X-C chemokine receptor type 4 (CXCR4, Homo sapiens, UniProt P61073)	PET	human, lymphoma lesion			SUVmax	16.9
CNC(=O)CC[C@@H](NC(=O)[C@@H](Cc1ccc(OP(=O)(O)O)cc1)NC(=O)[C@@H](Cc1ccccc1)NC(=O)[C@@H](Cc1ccccc1)NC(=O)Cc1ccc2ccccc2c1)C(=O)NC	alkaline phosphatase	substrate	HS5	200 µM, 24 h		dephosphorylated fraction	30%
C=CC(=O)Nc1cc(Nc2nccc(-c3cn(C)c4ccccc34)n2)c(OCC(F)(F)F)nc1N(C)CCN(C)C	CYP2B6	enzyme activity, inhibitor	human, liver microsomes	10 µM		activity vs control	101%
COC(=O)C1C(OC(c2ccc(Cl)cc2)c2ccc(Cl)cc2)CC2CCC1N2C (single isomer, unassigned)	KCNH2	ligand displacement, radioligand				Ki	335 nM

Repeated from above:
Structure (SMILES)	target	test	test system	conditions	scale	quantity	result
CC(C)(O)c1ccccc1CC[C@H](c1cccc(/C=C/c2ccc3ccc(Cl)cc3n2)c1)S(=O)(=O)CC1(CC(=O)O)CC1	CYP2D6	inhibitor	human liver microsomes	2 µM, pH 7.4, together with: dextromethorphan		inhibition	< 0%
CC(CCC(=O)NCC(=O)O)C1CCC2C3C(O)CC4CC(OC5OC(C(=O)O)C(O)C(O)C5O)CCC4(C)C3CCC12C (stereo not drawn)	Solute carrier organic anion transporter family member 1B1 (SLCO1B1, Homo sapiens, UniProt Q9Y6L6)	substrate	transfected HEK293 cells	1 µM, 2 min	baseline: wild-type HEK293 cells	uptake ratio	86
